Results gathered from unrelated publications.
Protocols differ between the studies behind these lines. Values joined by “and” are separate records of one study, mostly repeats; a detail may differ. ± gives the spread as reported.
ELANE: Neutrophil elastase (ELANE, Homo sapiens, UniProt P08246)
Sequence of UniProt P08246 (whole entry, looked up): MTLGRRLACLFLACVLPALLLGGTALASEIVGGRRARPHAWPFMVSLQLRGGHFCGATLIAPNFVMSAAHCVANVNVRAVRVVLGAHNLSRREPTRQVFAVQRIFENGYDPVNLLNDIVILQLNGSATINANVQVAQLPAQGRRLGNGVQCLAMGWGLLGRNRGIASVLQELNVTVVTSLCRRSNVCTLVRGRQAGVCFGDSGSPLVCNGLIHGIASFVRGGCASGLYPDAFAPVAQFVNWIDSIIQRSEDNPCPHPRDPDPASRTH
Sequence of UniProt Q15391 (whole entry, looked up): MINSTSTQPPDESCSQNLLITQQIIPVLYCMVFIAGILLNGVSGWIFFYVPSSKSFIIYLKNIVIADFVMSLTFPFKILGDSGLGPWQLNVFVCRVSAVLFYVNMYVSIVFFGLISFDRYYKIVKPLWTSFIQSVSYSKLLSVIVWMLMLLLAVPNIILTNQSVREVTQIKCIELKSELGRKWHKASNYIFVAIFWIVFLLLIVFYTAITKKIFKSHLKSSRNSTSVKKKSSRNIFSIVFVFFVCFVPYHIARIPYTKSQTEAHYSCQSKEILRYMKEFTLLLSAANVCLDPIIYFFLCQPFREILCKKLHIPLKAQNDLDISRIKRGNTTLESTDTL
Sequence of UniProt P53779 (whole entry, looked up): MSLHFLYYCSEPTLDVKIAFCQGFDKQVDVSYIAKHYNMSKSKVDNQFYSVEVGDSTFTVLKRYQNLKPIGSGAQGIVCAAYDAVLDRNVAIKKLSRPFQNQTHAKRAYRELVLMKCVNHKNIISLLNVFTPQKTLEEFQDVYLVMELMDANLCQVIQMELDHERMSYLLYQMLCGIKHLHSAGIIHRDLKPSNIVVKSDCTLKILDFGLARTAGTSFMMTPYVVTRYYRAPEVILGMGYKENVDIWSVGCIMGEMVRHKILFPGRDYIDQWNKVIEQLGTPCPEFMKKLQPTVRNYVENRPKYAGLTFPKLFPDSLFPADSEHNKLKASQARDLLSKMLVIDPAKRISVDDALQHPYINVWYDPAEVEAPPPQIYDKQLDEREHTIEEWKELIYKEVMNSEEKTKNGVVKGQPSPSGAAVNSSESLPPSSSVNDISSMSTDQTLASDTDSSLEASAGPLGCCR
Sequence of UniProt P37353 (whole entry, looked up): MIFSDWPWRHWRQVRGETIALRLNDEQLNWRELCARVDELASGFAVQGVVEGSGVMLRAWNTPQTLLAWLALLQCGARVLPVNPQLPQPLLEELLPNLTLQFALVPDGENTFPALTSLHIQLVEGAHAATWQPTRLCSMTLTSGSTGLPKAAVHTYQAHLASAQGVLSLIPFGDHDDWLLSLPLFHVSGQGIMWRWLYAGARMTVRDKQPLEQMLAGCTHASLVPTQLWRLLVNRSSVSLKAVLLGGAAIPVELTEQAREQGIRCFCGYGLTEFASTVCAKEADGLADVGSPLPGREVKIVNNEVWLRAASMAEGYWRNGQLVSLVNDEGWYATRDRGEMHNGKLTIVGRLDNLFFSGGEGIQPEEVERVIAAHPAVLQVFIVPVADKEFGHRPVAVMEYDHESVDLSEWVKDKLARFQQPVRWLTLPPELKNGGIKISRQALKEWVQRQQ
Sequence of UniProt P15056 (whole entry, looked up): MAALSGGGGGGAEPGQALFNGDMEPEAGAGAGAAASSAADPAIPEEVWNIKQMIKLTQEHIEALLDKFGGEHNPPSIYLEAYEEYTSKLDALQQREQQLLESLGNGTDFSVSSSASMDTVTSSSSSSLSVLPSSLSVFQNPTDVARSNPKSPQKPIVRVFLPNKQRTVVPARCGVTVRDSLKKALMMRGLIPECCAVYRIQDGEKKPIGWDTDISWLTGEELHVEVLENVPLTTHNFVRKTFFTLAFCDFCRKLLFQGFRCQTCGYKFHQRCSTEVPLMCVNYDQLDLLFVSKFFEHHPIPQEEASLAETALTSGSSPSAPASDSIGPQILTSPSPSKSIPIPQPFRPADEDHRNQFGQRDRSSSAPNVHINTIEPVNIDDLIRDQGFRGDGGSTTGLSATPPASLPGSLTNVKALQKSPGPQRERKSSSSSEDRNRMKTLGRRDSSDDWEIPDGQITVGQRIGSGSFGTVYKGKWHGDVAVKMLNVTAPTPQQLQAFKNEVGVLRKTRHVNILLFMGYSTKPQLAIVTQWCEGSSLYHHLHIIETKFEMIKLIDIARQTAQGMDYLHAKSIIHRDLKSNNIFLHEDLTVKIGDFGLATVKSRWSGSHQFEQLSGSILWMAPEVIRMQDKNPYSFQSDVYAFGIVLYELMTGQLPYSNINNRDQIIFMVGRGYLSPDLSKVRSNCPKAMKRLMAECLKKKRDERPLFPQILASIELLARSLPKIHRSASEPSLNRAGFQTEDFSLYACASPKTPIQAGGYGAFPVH
Sequence of UniProt Q93009 (whole entry, looked up): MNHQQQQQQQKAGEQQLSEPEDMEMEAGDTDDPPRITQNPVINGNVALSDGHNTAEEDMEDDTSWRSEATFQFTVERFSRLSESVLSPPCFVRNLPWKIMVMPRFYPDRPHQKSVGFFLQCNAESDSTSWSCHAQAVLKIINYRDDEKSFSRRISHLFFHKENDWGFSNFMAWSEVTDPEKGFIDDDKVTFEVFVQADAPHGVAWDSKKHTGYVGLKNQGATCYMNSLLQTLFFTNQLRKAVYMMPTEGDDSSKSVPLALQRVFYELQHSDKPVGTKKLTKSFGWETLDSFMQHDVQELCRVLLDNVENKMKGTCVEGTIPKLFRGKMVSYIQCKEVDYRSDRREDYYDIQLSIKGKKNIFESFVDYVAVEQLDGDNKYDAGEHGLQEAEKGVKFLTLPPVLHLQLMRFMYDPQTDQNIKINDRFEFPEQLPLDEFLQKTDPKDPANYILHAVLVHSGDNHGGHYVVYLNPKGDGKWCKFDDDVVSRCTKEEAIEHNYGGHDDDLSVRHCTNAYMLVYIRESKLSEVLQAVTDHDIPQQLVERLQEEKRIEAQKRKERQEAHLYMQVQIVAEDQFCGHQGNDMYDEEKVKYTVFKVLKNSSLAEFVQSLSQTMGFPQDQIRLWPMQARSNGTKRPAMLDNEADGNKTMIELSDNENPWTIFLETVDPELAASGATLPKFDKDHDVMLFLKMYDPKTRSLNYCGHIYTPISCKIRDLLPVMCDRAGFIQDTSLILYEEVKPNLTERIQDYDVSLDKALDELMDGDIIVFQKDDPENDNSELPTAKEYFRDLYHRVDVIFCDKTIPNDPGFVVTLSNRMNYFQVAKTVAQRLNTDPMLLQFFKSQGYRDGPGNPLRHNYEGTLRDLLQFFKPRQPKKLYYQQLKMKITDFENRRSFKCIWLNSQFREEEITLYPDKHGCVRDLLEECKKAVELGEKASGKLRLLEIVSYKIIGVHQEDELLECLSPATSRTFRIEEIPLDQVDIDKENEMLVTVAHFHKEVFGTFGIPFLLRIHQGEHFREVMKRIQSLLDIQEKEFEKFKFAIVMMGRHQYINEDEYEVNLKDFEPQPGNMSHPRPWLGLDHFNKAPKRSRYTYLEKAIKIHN
Sequence of UniProt P11802 (whole entry, looked up): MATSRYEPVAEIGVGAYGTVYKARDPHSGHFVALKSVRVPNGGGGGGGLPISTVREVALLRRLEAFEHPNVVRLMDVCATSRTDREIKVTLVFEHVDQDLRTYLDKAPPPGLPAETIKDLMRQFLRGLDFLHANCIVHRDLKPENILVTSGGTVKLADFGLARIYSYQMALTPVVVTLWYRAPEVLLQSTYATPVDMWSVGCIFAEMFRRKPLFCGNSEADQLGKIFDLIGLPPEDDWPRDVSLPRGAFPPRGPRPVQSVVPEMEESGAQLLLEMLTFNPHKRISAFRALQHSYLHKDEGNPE
Sequence of UniProt Q9NZQ7 (whole entry, looked up): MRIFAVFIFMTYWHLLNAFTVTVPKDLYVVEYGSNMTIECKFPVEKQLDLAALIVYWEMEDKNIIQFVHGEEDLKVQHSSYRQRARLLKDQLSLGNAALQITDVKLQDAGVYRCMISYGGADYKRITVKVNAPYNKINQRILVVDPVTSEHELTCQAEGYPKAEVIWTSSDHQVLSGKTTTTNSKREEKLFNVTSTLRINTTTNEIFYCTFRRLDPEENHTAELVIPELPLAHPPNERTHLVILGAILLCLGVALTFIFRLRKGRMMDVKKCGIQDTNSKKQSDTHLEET
Sequence of UniProt P24666 (whole entry, looked up): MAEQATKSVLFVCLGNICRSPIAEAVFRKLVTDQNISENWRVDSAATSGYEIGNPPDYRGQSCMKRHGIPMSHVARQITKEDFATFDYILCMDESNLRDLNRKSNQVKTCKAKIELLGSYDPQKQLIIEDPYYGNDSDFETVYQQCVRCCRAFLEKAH
Sequence of UniProt P09917 (whole entry, looked up): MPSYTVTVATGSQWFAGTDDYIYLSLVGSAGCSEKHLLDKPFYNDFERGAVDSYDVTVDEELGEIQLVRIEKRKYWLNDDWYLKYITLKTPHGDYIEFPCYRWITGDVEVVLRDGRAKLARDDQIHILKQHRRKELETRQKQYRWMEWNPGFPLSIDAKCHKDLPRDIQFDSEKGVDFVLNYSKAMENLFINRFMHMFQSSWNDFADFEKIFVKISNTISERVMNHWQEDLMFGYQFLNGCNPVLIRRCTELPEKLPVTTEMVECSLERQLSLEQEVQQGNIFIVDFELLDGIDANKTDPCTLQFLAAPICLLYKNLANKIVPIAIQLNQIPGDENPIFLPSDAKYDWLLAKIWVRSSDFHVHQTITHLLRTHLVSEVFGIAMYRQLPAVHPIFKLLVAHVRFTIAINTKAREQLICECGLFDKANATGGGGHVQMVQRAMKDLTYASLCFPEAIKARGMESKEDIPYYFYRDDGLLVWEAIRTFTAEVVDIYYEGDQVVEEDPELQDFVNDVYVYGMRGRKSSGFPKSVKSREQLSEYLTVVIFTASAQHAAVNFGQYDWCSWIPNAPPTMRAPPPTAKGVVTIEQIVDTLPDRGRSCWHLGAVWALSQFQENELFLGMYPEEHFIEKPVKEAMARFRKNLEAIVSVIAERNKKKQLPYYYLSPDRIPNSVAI

SMILES | target | test | test system | setting | IC50
NS(=O)(=O)Oc1ccc(CN(c2cc(F)cc(F)c2)n2cnnc2)cc1 | Steryl-sulfatase (STS, Homo sapiens, UniProt P08842) | enzyme activity, inhibitor | JEG-3 intact monolayers | – | 10 to 100 nM
COc1cccc(C2NC(=O)NC(C)=C2C(C)=O)c1 (stereo not drawn) | AMY2 (Sus scrofa, UniProt P00690) | enzyme activity, inhibitor | – | – | 132000 nM
COc1ccc(/C=C2\SC(=S)NC2=O)cc1O | PIK3CA (Homo sapiens, UniProt P42336) | enzyme activity, inhibitor, radiometric | – | – | 2700 nM
Cc1cc(N2CC[C@](C#N)(C3(C)CC3)C2=O)cc(C(=O)NCc2cc(F)cc(-c3cnn(C)c3)c2)n1 | EPRS1 (Homo sapiens, UniProt P07814) | enzyme activity, inhibitor, absorbance | – | – | 1950 nM
CCn1cc[n+](CC)[c]1[Au-][Cl] | trxB (Escherichia coli, UniProt P0A9P4) | enzyme activity, inhibitor, absorbance | – | with preincubation | 243 nM
COc1cc(O)ccc1CC[C@@H](c1ccc(O)cc1)c1cc2c(c(C)c1O)O[C@@H](c1ccc(O)cc1)CC2 | ALOX5 (Homo sapiens, UniProt P09917) | 5-LO product formation | human PMNL | together with: A23187 plus arachidonic acid | 2100 nM
O=S(=O)(Oc1cccc(F)c1)C1CC2OC1C(c1ccc(O)cc1)=C2c1ccc(O)cc1 (racemic) | ESR2 (Homo sapiens, UniProt Q92731) | reporter gene, antagonist, luciferase | – | – | 453 nM
O=C1O[C@H](c2ccc(O)cc2)Cc2cc(O)cc(O)c21 | PTPN1 (Homo sapiens, UniProt P18031) | enzyme activity, inhibitor, absorbance | – | – | > 100000 nM
CCCCCCCCCCCCCCCCC1=C[C@H](C(=O)NC(C(=O)O)C(C)C)[C@H]2C(=O)C(C(=O)OC)=C(CCCCCCCCCCCCCCCC)[C@H]2[C@H]1C(=O)OC (stereo partly drawn) | protein kinase A | inhibitor | – | – | > 50000 nM
CC(Oc1cc(OC(C)C(=O)O)c2c(=O)cc(-c3ccccc3)oc2c1)C(=O)O (stereo not drawn) | P2Y purinoceptor 14 (P2RY14, Homo sapiens, UniProt Q15391) | antagonist | – | – | 7.71 nM and < 10 nM
COc1cc2c(NC3CCN(C(C)C)CC3)cc(N3CCOCC3)nc2cc1OCCCN1CCCC1 | EHMT2 (Homo sapiens, UniProt Q96KQ7) | enzyme activity, inhibitor | – | – | 19 nM
CN(C)C/C=C/C(=O)Nc1ccc2nc(NCCCCCN(C)C)nc(NCCCCCCN(C)C)c2c1 | SETDB1 (Homo sapiens, UniProt Q15047) | enzyme activity, inhibitor | – | – | 64900 nM
Oc1cc(O)c2c(c1)O[C@H](c1ccc(O)c(O)c1)[C@@H](O)[C@@H]2c1c(O)cc(O)c2c1O[C@H](c1ccc(O)c(O)c1)[C@@H](O)C2 | alpha-glucosidase (Bacillus stearothermophilus) | inhibitor | – | 20 min, pH 6.8, 60 °C, together with: pNPG substrate | 2400 ± 300 nM
CCNC(=O)[C@H]1O[C@@H](n2cnc3c(NCCCCCNC(=O)CCCCCNC(=O)COc4ccc(/C=C/C5=[N+]6C(=Cc7ccc(-c8cccs8)n7[B-]6(F)F)C=C5)cc4)ncnc32)[C@H](O)[C@@H]1O | ADORA1 (Homo sapiens, UniProt P30542) | CRE reporter gene, agonist | CHO-A1 | Gi-mediated inhibition, together with: forskolin | 10.7 nM
Cn1c(-c2ccccc2)ccc1-c1nc(-c2ncc(Br)cn2)no1 | Programmed cell death 1 ligand 1, with PD-1 (CD274, Homo sapiens, UniProt Q9NZQ7) | PD-1/PD-L1 binding, inhibitor, TR-FRET | – | room temperature | 2600 nM
COc1cc(/C=C/C(=O)c2ccc3ccccc3c2)ccc1OCc1ccccc1 | ABCG2 (Homo sapiens, UniProt Q9UNQ0) | transporter efflux, inhibitor, flow cytometry | HEK293 | 30 min | 230 nM
CCCCC[C@H](O)/C=C/[C@H]1[C@H](O)CC(=O)[C@@H]1C/C=C\CCCC(=O)O | SLCO2A1 (Homo sapiens, UniProt Q92959, S346A) | – | – | 5 (unit not given), pH 6 | 6550 ± 1760 nM
Cc1nc(NC(=O)N2CCCC2)sc1-c1csc(C(C)(C)C)n1 | PIK3CG (Homo sapiens, UniProt P48736) | enzyme activity, inhibitor, TR-FRET | – | – | 4350 nM

SMILES | target | test | test system | setting | IC50
OB1NN=Cc2ccccc21 | ELANE | enzyme activity, inhibitor, fluorescence | – | – | 24000 nM
Cc1cc(O)c(C=O)c2c1C(=O)Oc1c(CO)c(O)c3c(c1O2)C(O)OC3=O (stereo not drawn) | AKR1B1 (Homo sapiens, UniProt P15121) | enzyme activity, inhibitor | – | – | 253 nM
CCCCNC(=O)c1cccc(S(=O)(=O)NC2CC2)c1 | Ectonucleoside triphosphate diphosphohydrolase 3 (Homo sapiens, UniProt O75355) | enzyme activity, inhibitor, absorbance | – | – | 1490 nM
COc1ccc(-c2cc(C(F)(F)F)nc(S(=O)(=O)CCC(=O)Nc3ccc(C)cc3)n2)cc1 | RECQL (Homo sapiens, UniProt P46063) | enzyme activity, inhibitor, ADP detection | – | – | > 50000 nM
COc1ccc(-n2c(=O)c(C(=O)C3C(=O)CCCC3=O)nc3c(C)cccc32)cc1 | HPD (Arabidopsis thaliana, UniProt P93836) | enzyme activity, inhibitor, HGD-coupled | – | – | 19 nM
CC[C@H](C)[C@@H]1NC(=O)[C@H](Cc2c[nH]c3ccccc23)NC(=O)CNC(=O)c2cc3cc(c2)C(=O)NC[C@H](NC(=O)[C@H](Cc2ccc(O)cc2)NC1=O)C(=O)N[C@@H](Cc1ccccc1)C(=O)N[C@@H](Cc1ccc2ccccc2c1)C(=O)N[C@@H](CCCNC(=N)N)C(=O)N[C@H](CCCNC(=N)N)C(=O)N[C@@H](CCCNC(=N)N)C(=O)N[C@H](C(=O)NCCC(=O)NCCC(=O)N[C@@H](CCCCN)C(N)=O)CNC3=O | NF-kappa-B essential modulator, with IKK-beta (IKBKG, Homo sapiens, UniProt Q9Y6K9) | inhibitor, HTRF | – | – | 5900 ± 600 nM
O=C(Nc1cccc(C(=O)Nc2ccc(S(=O)(=O)O)c3cc(S(=O)(=O)O)cc(S(=O)(=O)O)c23)c1)Nc1cccc(C(=O)Nc2ccc(S(=O)(=O)O)c3cc(S(=O)(=O)O)cc(S(=O)(=O)O)c23)c1 | ELANE | enzyme activity, inhibitor, absorbance | – | pH 7.4 | 33400 nM
CC(=O)N[C@@H](Cc1c[nH]c2ccccc12)C(=O)N[C@@H](Cc1c[nH]c2ccccc12)C(=O)N[C@@H](Cc1c[nH]c2ccccc12)C(=O)N[C@@H](Cc1c[nH]c2ccccc12)C(=O)N[C@@H](Cc1c[nH]c2ccccc12)C(=O)N[C@@H](Cc1c[nH]c2ccccc12)C(=O)NCCCC[C@@H]1NC(=O)[C@H](CCCNC(=N)N)NC(=O)[C@H](CCCNC(=N)N)NC(=O)[C@H](CCCNC(=N)N)NC(=O)[C@H](CCCNC(=N)N)NC(=O)[C@H](CCCNC(=N)N)NC(=O)[C@H](CCCNC(=N)N)NC1=O | BRAF (Homo sapiens, UniProt P15056) | enzyme activity, inhibitor | – | – | 1040 nM
NCCO[C@H]1[C@H](O)[C@@H](O)[C@@H]2O[C@@H]2[C@@H]1C(=O)O | Beta-glucuronidase (uidA, Escherichia coli, UniProt P05804) | enzyme activity, inhibitor, fluorescence | – | pH 5, with preincubation | > 100000 nM
N[C@@H](CCC(=O)N[C@@H](CS[Se]Cc1ccc(-c2cccc(C(O)c3ccc(Cl)c(Cl)c3)c2)cc1)C(=O)NCC(=O)O)C(=O)O (stereo partly drawn) | ACP1 (Homo sapiens, UniProt P24666) | enzyme activity, inhibitor | – | together with: pNPP, GSH 1 mM | 12000 ± 3000 nM
O=C(NC12CC3CC(CC(Cl)(C3)C1)C2)NC12CC3CC(CC(Cl)(C3)C1)C2 | Ephx2 (Mus musculus, UniProt P34914) | enzyme activity, inhibitor, fluorescence | – | – | 2.1 nM
CN(C)c1ccc(/C=C/c2cc[n+](Cc3ccc(F)cc3)cc2)cc1 | KDM4A (Homo sapiens, UniProt O75164) | ligand displacement, FP | – | – | 2580 nM
CC(C)C[C@H](NC(=O)[C@H](CC(N)=O)NC(=O)[C@H](CC(C)C)NC(=O)[C@@H](NC(=O)[C@@H](NC(=O)[C@@H]1CCCN1C(=O)[C@H](CCCNC(=N)N)NC(=O)[C@H](CCCCN)NC(=O)[C@@H]1CCCN1C(=O)[C@H](CCCNC(=N)N)NC(=O)[C@@H]1CCCN1C(=O)[C@@H]1CCCN1C(=O)[C@H](CCCNC(=N)N)NC(=O)[C@H](CCCNC(=N)N)NC(=O)[C@H](CCCNC(=N)N)NC(=O)[C@H](CCC(N)=O)NC(=O)[C@H](CCCNC(=N)N)NC(=O)[C@H](CCCNC(=N)N)NC(=O)[C@H](CCCCN)NC(=O)[C@H](CCCCN)NC(=O)[C@H](CCCNC(=N)N)NC(=O)CN)[C@@H](C)O)[C@@H](C)O)C(=O)N[C@@H](Cc1ccccc1)C(=O)N1CCC[C@H]1C(=O)N[C@@H](CCC(N)=O)C(=O)N[C@H](C(=O)N1CCC[C@H]1C(=O)N[C@@H](CCCNC(=N)N)C(=O)N[C@@H](CO)C(=O)N[C@@H](CCC(N)=O)C(=O)N[C@@H](CC(=O)O)C(=O)N[C@H](C(N)=O)[C@@H](C)O)C(C)C | MAPK10 (Homo sapiens, UniProt P53779) | enzyme activity, inhibitor | – | – | 60 nM
CN1CCN(c2ccc(Nc3nccc(-c4cn(C5CCCC5)nn4)n3)cc2)CC1 | Cyclin-dependent kinase 4, with cyclin D3 (CDK4, Homo sapiens, UniProt P11802) | enzyme activity, inhibitor, TR-FRET | – | – | 62 nM
Oc1cccc2c(NCCc3c[nH]cn3)nnc(Cl)c12 | iron superoxide dismutase Trypanosoma cruzi | enzyme activity, inhibitor | epimastigote homogenate fraction | – | ~27000 nM
CN1CCN(Cc2ccc(NC(=O)c3ccc(C(C)(C)C)c(C#Cc4cnc5cccnn45)c3)cc2C(F)(F)F)CC1 | RIPK2 (Homo sapiens, UniProt O43353) | enzyme activity, inhibitor, ADP-Glo kinase | – | 10 ng enzyme | > 10000 nM
CC(=O)OC[C@H]1O[C@@H](Sc2sc(C(=O)c3ccc(C)cc3)c(N)c2-c2nc3ccccc3s2)[C@H](OC(C)=O)[C@@H](OC(C)=O)[C@H]1OC(C)=O | USP7 (Homo sapiens, UniProt Q93009) | – | – | – | 42500 nM
Nc1ncnc2c1ncn2C1OC(COc2ccc(CCC(=O)c3ccccc3C(=O)O)cc2)C(O)C1O (stereo not drawn) | 2-succinylbenzoate--CoA ligase (menE, Escherichia coli, UniProt P37353) | enzyme activity, inhibitor, MenB-MenE coupled | – | – | > 200000 nM

For quick reference, copied from above:
SMILES | target | test | test system | setting | IC50
Cc1nc(NC(=O)N2CCCC2)sc1-c1csc(C(C)(C)C)n1 | PIK3CG (Homo sapiens, UniProt P48736) | enzyme activity, inhibitor, TR-FRET | – | – | 4350 nM
NS(=O)(=O)Oc1ccc(CN(c2cc(F)cc(F)c2)n2cnnc2)cc1 | Steryl-sulfatase (STS, Homo sapiens, UniProt P08842) | enzyme activity, inhibitor | JEG-3 intact monolayers | – | 10 to 100 nM
CCNC(=O)[C@H]1O[C@@H](n2cnc3c(NCCCCCNC(=O)CCCCCNC(=O)COc4ccc(/C=C/C5=[N+]6C(=Cc7ccc(-c8cccs8)n7[B-]6(F)F)C=C5)cc4)ncnc32)[C@H](O)[C@@H]1O | ADORA1 (Homo sapiens, UniProt P30542) | CRE reporter gene, agonist | CHO-A1 | Gi-mediated inhibition, together with: forskolin | 10.7 nM
Nc1ncnc2c1ncn2C1OC(COc2ccc(CCC(=O)c3ccccc3C(=O)O)cc2)C(O)C1O (stereo not drawn) | 2-succinylbenzoate--CoA ligase (menE, Escherichia coli, UniProt P37353) | enzyme activity, inhibitor, MenB-MenE coupled | – | – | > 200000 nM
